Experimental data collected from several papers.
Every numbered part comes from another study and shows a few of its results, in no order.

Block 1
Target: RING finger protein unkempt homolog, zinc fingers 1-6, GST-SBP tag (UNK, Homo sapiens, UniProt Q9C0B0, residues 30-357)
Sequence of UniProt Q9C0B0 (30-357, looked up): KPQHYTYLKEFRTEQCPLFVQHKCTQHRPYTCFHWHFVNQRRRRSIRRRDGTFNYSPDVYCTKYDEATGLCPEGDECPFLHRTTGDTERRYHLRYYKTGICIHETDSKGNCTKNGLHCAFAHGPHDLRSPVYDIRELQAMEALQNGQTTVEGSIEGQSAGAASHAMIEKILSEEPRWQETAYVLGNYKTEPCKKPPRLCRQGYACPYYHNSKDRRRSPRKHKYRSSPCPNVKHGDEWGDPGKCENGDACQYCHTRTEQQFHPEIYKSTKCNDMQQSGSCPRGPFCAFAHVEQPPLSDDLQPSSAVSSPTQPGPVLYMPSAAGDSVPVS
Method: RNA Bind-n-Seq
Form: RNA
Medium: in vitro
Tested at: not given
Notes: RNA with constant flanks, ends assumed
Reference: input RNA pool
Direction: higher = stronger binding
Strand	bound/input enrichment [ratio]
GGGAGUUCUACAGUCCGACGAUCCAAGAUCACCUGUUGCCUGAAGCAGAAGAAAUCACUAUGAUCAGUAUUCAACUUGCUGCCCGGUUCCUCUUUACUACAGGAUUUCACACAAAGAAAGUAGUCCGUGGCUCUGCCAGUGAUCAACAGAGGAUUGAGCAUCA	0.257
GGGAGUUCUACAGUCCGACGAUCAGCACCCCCGGGAGCGGGGCUCGCAGCCGGGGACCAGCCCUGCAGCGCCCAUCUGGGGGCCCGUUCUUAACUCUUCCUCCACGGAGCCCCAGACGGGUCCCCUCCCUUCUUGAUCCUUUUCAACAGAGGAUUGAGCAUCA	0.115
GGGAGUUCUACAGUCCGACGAUCUCUGCAAUAGUUGGAUUUAUCUACGGGUACGUGGCUGAACAGUUCGGGUGGACUGUCUAUACCGUUAUGGCCGGAUUUGCUUUUUCAUGUUUGCUGACACUUCCUCCAUGGCCCAUCUAUCAACAGAGGAUUGAGCAUCA	0.247
GGGAGUUCUACAGUCCGACGAUCAACCAUCCAGGCCAAAUCAGUGCUGGCUACGCUCCUGUUCUGGAUUGUCACACAGCCCACACCGCAUGCAAGUUUGCUGAGCUUAAAGAAAAGAUCGAUCGUCGUUCUGGUAAGAAGCUGCAACAGAGGAUUGAGCAUCA	0.356

Block 2
Target: Phosphate system positive regulatory protein PHO4, full length, GST-tagged (PHO4, Saccharomyces cerevisiae, UniProt P07270, residues 1-312)
Method: competition protein-binding microarray
Form: double-stranded DNA, one strand shown
Medium: in vitro
Tested at: 2 µM
Notes: whole 60-bp probe, lowest competitor level
Together with: Cbf1 competitor, 0.05 µM
Direction: higher = stronger binding
All sequences stand within: … GTCTTGATTCGCTTGACGCTGCTG
Residues (chain): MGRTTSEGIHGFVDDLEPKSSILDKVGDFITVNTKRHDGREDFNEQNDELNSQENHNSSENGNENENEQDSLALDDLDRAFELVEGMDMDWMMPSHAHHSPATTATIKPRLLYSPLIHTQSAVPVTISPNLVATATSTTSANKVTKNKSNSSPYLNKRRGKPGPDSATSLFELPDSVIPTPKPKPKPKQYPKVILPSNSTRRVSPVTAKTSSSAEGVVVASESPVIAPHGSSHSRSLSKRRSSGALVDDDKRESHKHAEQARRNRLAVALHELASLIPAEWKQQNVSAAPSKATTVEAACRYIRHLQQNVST
Strand	fluorescence intensity [a.u.]
GCCCATCATCGCGGCCACGCAACCCGGTAATCTCTA	6470
CGGGGTTAAGTTTGTCACCCTACTTGCTTGCAGCAG	3330
CTTCTGTAAATTTGCGAGGTGGGTGGACGCGCCCCG	3840
AGAGCATAGGTTTGACCCGTGATTGTGCCGACGTCA	6170
CGGGGTTAAGTTTGTTTCGTGGGTGGCTTGCAGCAG	4730
CCTTGAATGATAAAACACGTTAAAGTTTCTAGATCA	5910

Block 3
Target: Sal-like protein 4, full length isoform B (SALL4, Homo sapiens, UniProt Q9UJQ4-2, residues 1-616)
Method: universal PBM
Form: double-stranded DNA, one strand shown
Medium: in vitro
Tested at: not given
Notes: 8-mer, flanks averaged, mean of replicates
Direction: higher = stronger binding
Residues (chain): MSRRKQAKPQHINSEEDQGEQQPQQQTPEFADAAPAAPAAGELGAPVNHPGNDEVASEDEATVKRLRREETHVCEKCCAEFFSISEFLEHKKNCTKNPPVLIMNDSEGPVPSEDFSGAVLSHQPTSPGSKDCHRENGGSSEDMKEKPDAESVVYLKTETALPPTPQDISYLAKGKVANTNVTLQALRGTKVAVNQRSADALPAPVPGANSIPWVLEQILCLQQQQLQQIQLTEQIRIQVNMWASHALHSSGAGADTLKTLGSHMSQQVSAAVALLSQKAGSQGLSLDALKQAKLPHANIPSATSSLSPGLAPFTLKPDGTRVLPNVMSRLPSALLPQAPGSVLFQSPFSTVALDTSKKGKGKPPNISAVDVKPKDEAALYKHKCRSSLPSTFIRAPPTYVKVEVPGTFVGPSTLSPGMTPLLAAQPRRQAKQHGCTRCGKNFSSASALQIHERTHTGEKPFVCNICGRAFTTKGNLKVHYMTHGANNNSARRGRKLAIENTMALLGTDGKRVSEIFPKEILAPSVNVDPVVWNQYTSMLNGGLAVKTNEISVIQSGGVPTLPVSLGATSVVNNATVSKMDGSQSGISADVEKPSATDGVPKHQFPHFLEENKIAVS
Strand	E-score
CCCTAAGC	-0.153
CCGACCCA	-0.191
GCCCTGGA	-0.295
AAGCCCAA	0.102
CACGTTCC	-0.132
AAAGCATA	0.282

Other studies, line by line
Substance	target	assay	test system	conditions	scale	measurement	value
PhoQ, residues 284 288 289 292 302 303 SSTMSV	PhoP, residues 12 14 15 18 19 LHSVQ (Escherichia coli, UniProt P23836)	Sort-seq, measured: YFP reporter	E. coli	PhoQ-PhoP variant library, together with: 10 µM Mg2+	reference: high Mg2+ state, higher = stronger signaling	fold induction	1.26
